# Experimental data collected from several papers.
# A part holds a random share of what one study measured. Substitutions count along the parent as printed.

# Study 1
# Target: Sal-like protein 4, full length isoform A (SALL4, Homo sapiens, UniProt Q9UJQ4, residues 1-1053)
# UniProt Q9UJQ4, sequence (whole entry, looked up): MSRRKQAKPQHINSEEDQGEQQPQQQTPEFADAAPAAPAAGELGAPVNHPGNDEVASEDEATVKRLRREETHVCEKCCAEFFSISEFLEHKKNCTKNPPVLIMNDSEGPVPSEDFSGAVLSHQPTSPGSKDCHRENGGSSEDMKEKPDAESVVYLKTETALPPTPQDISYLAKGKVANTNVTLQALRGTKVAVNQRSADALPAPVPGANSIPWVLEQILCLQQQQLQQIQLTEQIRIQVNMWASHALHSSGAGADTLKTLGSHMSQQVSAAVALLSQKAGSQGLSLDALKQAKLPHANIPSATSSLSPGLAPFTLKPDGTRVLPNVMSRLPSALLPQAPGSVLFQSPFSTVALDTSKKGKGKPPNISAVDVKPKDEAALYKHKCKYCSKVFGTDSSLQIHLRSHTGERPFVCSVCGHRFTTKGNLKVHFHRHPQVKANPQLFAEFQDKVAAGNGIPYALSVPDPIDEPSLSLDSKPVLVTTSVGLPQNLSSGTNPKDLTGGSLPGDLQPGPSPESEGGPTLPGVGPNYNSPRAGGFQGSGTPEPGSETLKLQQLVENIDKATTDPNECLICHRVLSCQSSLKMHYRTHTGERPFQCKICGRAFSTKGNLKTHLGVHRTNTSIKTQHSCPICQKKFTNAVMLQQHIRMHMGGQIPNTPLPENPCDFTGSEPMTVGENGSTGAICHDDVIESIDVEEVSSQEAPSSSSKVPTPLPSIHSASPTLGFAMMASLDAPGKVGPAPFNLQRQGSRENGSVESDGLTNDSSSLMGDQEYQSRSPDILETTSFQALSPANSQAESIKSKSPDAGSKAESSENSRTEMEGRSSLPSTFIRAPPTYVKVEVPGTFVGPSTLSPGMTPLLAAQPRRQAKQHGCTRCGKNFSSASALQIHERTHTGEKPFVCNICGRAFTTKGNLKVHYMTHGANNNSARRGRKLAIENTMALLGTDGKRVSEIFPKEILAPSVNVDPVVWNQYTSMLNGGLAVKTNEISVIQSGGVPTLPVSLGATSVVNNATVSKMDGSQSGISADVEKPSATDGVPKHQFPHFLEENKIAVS
# Technique: universal PBM
# Form: double-stranded DNA, one strand shown
# Matrix: in vitro
# Tested at: 600 nM
# Setting: 8-mer, flanks averaged, mean of replicates
# Direction: higher = stronger binding
Sequence,E-score
ATGGCGGA,-0.168
AAACTTCC,-0.093
ATGAAGTA,0.239
GTCATGAA,0.0401
CGTGGACC,-0.365
AAAGCGCA,-0.0948
GCCACTCC,-0.175
GCGGGGAC,-0.231
AACTGATA,0.207
ACTAGGGA,-0.0405
CCGCATGA,-0.0615
CTTCACGA,-0.222
CCTTTGAC,-0.0215
TAGTCCCA,-0.0189
CCATACAG,-0.00065
GCTCGACA,-0.161
CTGACGAA,-0.00571
ACAGGCAT,-0.00936
CGGTTAAA,0.0393
CAATCGAA,0.0907
CTGATTTC,-0.0239
AGCGCATC,-0.143
ATTACGTG,0.158

# Study 2
# Target: Histone acetyltransferase KAT6A, both winged helices, GST fusion (KAT6A, Homo sapiens, UniProt Q92794, residues 1-181)
# Technique: protein binding microarray
# Form: double-stranded DNA, one strand shown
# Matrix: in vitro
# Tested at: not given
# Setting: 8-mer, flanks averaged, mean of 2 arrays, mostly near background
# Relative to: not given
# Direction: higher = stronger binding
# Construct (chain): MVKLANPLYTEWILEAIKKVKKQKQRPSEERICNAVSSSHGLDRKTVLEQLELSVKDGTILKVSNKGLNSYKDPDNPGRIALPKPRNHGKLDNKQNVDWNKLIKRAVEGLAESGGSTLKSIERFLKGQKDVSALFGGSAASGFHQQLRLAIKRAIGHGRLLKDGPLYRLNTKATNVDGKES
Sequence,E-score
TCCCGCCA,0.153
CGGCCAGC,0.236
CTTAGTGA,-0.106
CTATTGCA,-0.0856
TCGTGAAA,0.0309
AATAGCTG,-0.118
GAAGGCCC,0.0392
CATAACAC,-0.173
CAGACTGA,-0.00413
GATCCAAA,-0.12
ATACTTGG,-0.292
AAAGCGTG,0.183
ACATCCGG,0.163
CTGCCTAC,-0.107
ATCCACGA,-0.0945
ACCGTAAA,0.229
AAGTTGGG,-0.282
CTCCACAA,-0.177
GCCCGGCA,0.169
ATATGCGG,0.252
CGGGATGA,0.0753
CGGTACGA,0.093
CCGTGTCC,0.155
GCCGTATA,0.179
GTACTATA,0.0619

# Study 3
# Target: RING finger protein unkempt homolog, zinc fingers 1-6, GST-SBP tag (UNK, Homo sapiens, UniProt Q9C0B0, residues 30-357)
# UniProt Q9C0B0, sequence (30-357, looked up): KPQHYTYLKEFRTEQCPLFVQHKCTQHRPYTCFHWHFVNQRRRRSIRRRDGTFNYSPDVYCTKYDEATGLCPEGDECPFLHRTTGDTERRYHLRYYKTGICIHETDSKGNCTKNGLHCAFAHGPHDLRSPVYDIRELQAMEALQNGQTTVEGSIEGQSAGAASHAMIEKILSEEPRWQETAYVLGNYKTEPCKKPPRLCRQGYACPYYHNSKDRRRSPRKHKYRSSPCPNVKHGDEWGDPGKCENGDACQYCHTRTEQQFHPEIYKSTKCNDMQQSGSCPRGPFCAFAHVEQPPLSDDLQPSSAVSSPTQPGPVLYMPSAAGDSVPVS
# Technique: RNA Bind-n-Seq
# Form: RNA
# Matrix: in vitro
# Tested at: not given
# Setting: RNA with constant flanks, human and mouse sites, ends assumed
# Relative to: input RNA pool
# Direction: higher = stronger binding
# Constant ends, left off below: GGGAGUUCUACAGUCCGACGAUC … CAACAGAGGAUUGAGCAUCA
Sequence,bound/input enrichment
GCAUCCACUGCUACAGCUGAACAGUUUUUUCAGAAGCUGAGAAAUAAACAUGAAUUUACUAUUUUGGUGACCCUAAAACAGACCCACUUAAAUUCAGGAGUUAUUCUCUCAAUUCACCAC,0.166 ratio
AAUACAUCAUCAUCUUUGGAGAAUUUAGCGACGGCGCCUGUGAACCAGAUCCAAGAAACAAUUUCUGAUAAUUGUGUGGUGAUUUUCUCAAAAACAUCCUGUUCUUACUGUACAAUGGCA,0.185 ratio
GCAGGGCAAGAGGAUUAUGACAGACUACGACCGCUAAGUUAUCCACAGACAGAUGUUUUUCUAGUAUGUUUCUCAGUGGUCUCUCCAUCCUCAUUUGAAAAUGUGAAAGAAAAGUGGGUG,0.376 ratio
UUAGCUUAUGGCAACCAAGAAAGCAAGCUCAUCAUACUGGCUAGUGGUGGACCCCAAGCUUUAGUAAAUAUAAUGAGGACCUAUACUUACGAAAAACUACUGUGGACCACAAGCAGAGUG,1.23 ratio
GAGGGAAGGGAUGAGUCUUCAAGAAUGUCUACGUCAGAUGUACCACCUAGAUCUCAUAUUUUCAGAAGAGAUUCAAAUGAAGUAGUUCAUCUUGAAGCACAGGGUGACUCCCUUGGGGCU,0.257 ratio
AGGAGUGUACGGCUAGUCAGAGACAAAGACACAGAUAAAUUUAAAGGAUUCUGCUAUGUAGAAUUCGAUGAAGUGGAUUCCCUUAAGGAAGCCUUGACAUACGAUGGUGCACUGUUGGGC,0.311 ratio
GAAAGAGUAGAUGGGCCCAAGCACAGCCUCCUCAUGCGUUGAAAUAAUGCCAAAUGCUCUUUAGUAAAAUGCUGAAUUACGGUGUUUUUUUUUUUUUUGCAUCAUUUGUCUUUAAUAUUC,0.902 ratio
ACAUUUGUUCAGCAUUAUGCUUUUAUUAUGAAAACACUGAAGAAAAGUCACGAAUCAGAUACAAUGUCCAACAGAAUUGUGCAUAUUAGUGUUCAGUUGUUCAGCAAUGAGGAGCUAGCC,0.161 ratio
GCAAGGCAGAGCCACCAGAAACGUACACCUGAUUUUCAUGACAAAUACGGUAAUGCUGUAUUAGCUAGUGGAGCCACUUUCUGUAUUGUUACAUGGACAUAUGUAGCAACACAAGUCGGA,0.237 ratio
AAGGCCCUGCAGGAGCAGCUCAGUGAGAUUCGGAGUCGAGAAGAAGAGCCGUUUUCAUUUUAUAGCGAUCAAACAUCGUAUCUGAGUAUUUGCCUUGAAGAGCACAAUCAGUUCCAAUUG,0.413 ratio
GAAGCUUUUGCAAAGAUCCGAUUGGUCCUGGAAGUGCUCCAGAAACAGCUUCUAGAUUUGCCUCUUGAUGCUGACCUAGAAAUUGGAAAAGUCCCUGGGAUCGUGUUGGCUGAGAUGCUU,1.01 ratio

# Study 4
# Target: CCND2, cyclin fold, Cln2 fusion (human)
# Technique: yeast growth competition, sequencing
# Matrix: yeast
# Setting: weak parent motif
# Relative to: not given
# Direction: higher = stronger binding
# Parent: MICAL3 docking peptide (human); LQLRRQLSFSEDS; partner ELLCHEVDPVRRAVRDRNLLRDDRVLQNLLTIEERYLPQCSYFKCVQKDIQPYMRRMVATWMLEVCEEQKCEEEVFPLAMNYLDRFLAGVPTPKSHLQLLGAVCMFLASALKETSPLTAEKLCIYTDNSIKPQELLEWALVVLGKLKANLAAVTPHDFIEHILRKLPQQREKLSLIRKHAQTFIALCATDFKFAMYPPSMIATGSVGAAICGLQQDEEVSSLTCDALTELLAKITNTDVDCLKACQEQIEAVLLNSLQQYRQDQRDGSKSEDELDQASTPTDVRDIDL
Variant,normalised enrichment score
LQLRRQLSFSSDS [E11S],0.0683
LQLRRQRSFSEDS [L7R],-0.246
LCLRRQLSFSEDS [Q2C],0.462
LQMRRQLSFSEDS [L3M],0.217
LQLRRQLSKSEDS [F9K],0.0406
LQLRCQLSFSEDS [R5C],0.117
LQLRRQGSFSEDS [L7G],0.231
LQLRRQLSFGEDS [S10G],0.489
LQLRRQLSFSNDS [E11N],0.19
LQLRRQLSFSEHS [D12H],0.0486
LQLRRQLMFSEDS [S8M],-0.258
LQLRRVLSFSEDS [Q6V],0.0462
LQLRRQLSLSEDS [F9L],0.113
LTLRRQLSFSEDS [Q2T],0.028
LQLRRQLSFSENS [D12N],0.291
LQLRRQLTFSEDS [S8T],0.167

# Study 5
# Target: RNA binding protein fox-1 homolog 2, RRM domain, GST-SBP tag (RBFOX2, Homo sapiens, UniProt O43251-10, residues 100-194)
# Technique: RNA Bind-n-Seq
# Form: RNA
# Matrix: in vitro
# Tested at: 365 nM
# Setting: natural RNA segment, single round, ends assumed
# Relative to: no-protein control
# Direction: higher = stronger binding
# Constant ends, left off below: GGGAGUUCUACAGUCCGACGAUC … UGGAAUUCUCGGGUGCCAA
# Construct (chain): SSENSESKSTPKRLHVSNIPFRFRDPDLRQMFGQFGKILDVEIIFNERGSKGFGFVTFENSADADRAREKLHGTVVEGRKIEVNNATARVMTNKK
Sequence,RBNS enrichment (R)
UUUGAGUAAUAUAUUUUUAAGAACACCACUGGUCCUGUAAGUCUUGCCUCCUUGGCUUCUACUAGAGCAAAAUCUGCUGCCAAGUCAGCCUGGUUUCUGGUUGUGUUCUU,0.266
CGCCGUGGACUCUCGUGCAGGACUUGGGACUCGUGCUGAAGCCUUGGGGUCAAGGAACAUUUCAGUGGGUUUUUGCCCCAUCUCCUCCUCCCGUCCCCUGCUCAUGGGAC,0.379
AAGAGUUUUCUUGUUCUGUUGAAGUUUUCACACAAAACGGAAUGAAUGGGACCUCCUGCCAUUCAGUGAGCACUAGGACAGCUGGGACCUCCUGCCAUUCAGUGAGCACU,0.23
CACCACACCUGGCUAAUUUUUGUAUUUUAGUAGAGAUGGGGUUUCACCAUGUUGGCCAGGCUCGUCUCGAACUCCUGACUUCAGGUGAUCCACCCAUCUCAGCCUCCCAA,0.251
GUGAGGAAAUGUUUGGGAGAGGACUUUCUAAGCUCUAUUUAGGUGUUAGAUCUAAUUACUUAUAGAUUCUGUAGUCUGGUGAAGGUGUGGGUGACGUGAUGAGAGGUUUG,1.83
GGUCUGGCUUGCCCCCUCCCUGGGCCUCCAUCACCCCUGAGCAUCCCUCUGGACUCAGAGGGAACAAGGUGGGAGAGAGAGUUUGAGACAGCUCCGUGUGGAGAGCUUAG,0.225
CUGAGGGAUUCUGACUAAUGUGGUUUUUAAAACUUGGGUGUACUUUUUAGGAAAAUUGCAUCUGGCUAUGUAUAAAACAGACCUAAAAUAAAUUUCUUUGAUGUCUUCCC,0.555
GAAUGGAGGCUUACUAACCAGGUAAGCCUUCUAUGCAUCCACACCAAAAUCCUGCAGAAUGUAAGUAAGCUCUGCUUUAUAAGAUGGGUUCACCUUCAUCGCAGACUGAA,0.319
AUUCUUGACAUUUGGGUUUCAAAAUUGUGUUAGCACUUAUUUUAGAAACAUUAAUUAAGUGUAUGGCUGCCUUUGAAAUACUUGAUGUGUUGUUGUUGCCUUACAGAGGA,0.35
GGGUAAUCUGAUGUAUAGUUGUUUUGUUGCUGAUGUUUCCAUUGAAAUUUCAGCUCUGAGUUUGUGCACAUGAAUACUUACUUGUGUUUACCAAAGGUCUAAGGCAUUUG,1.38
UGUGCAUACCCUUGGUAGACAUUUCUCAUAGUGUGUACUUAAAAAGUGCCUGACAUUGAUUUGUGUUGAUUUCUAAGUCCAUGUAAUAAAUGAUACAUGUUUUCUAUGAU,0.323
GUAGAACCAGUGAGGAGAUGCGGCCAAAGAUUCUUUAUAUCUGAACCAAGAUGUAAAACAAGAAAUGCUUUGAGGCUUUCUAAGCGAUCCUCCUGUCUAAUUUGCACCUU,0.277

# Excerpt of the above (study 2):
Sequence,E-score
TCGTGAAA,0.0309
AATAGCTG,-0.118
GAAGGCCC,0.0392
CATAACAC,-0.173
CAGACTGA,-0.00413
GATCCAAA,-0.12
ATACTTGG,-0.292
AAAGCGTG,0.183
ACATCCGG,0.163
CTGCCTAC,-0.107
ATCCACGA,-0.0945
ACCGTAAA,0.229
